# Experimental data from different studies.
# Lines come from different studies, so protocols differ. Several values in a cell are separate wells, animals, samples, runs or records. ± marks the error that the study gave.
# UniProt Q12851, sequence (whole entry, looked up): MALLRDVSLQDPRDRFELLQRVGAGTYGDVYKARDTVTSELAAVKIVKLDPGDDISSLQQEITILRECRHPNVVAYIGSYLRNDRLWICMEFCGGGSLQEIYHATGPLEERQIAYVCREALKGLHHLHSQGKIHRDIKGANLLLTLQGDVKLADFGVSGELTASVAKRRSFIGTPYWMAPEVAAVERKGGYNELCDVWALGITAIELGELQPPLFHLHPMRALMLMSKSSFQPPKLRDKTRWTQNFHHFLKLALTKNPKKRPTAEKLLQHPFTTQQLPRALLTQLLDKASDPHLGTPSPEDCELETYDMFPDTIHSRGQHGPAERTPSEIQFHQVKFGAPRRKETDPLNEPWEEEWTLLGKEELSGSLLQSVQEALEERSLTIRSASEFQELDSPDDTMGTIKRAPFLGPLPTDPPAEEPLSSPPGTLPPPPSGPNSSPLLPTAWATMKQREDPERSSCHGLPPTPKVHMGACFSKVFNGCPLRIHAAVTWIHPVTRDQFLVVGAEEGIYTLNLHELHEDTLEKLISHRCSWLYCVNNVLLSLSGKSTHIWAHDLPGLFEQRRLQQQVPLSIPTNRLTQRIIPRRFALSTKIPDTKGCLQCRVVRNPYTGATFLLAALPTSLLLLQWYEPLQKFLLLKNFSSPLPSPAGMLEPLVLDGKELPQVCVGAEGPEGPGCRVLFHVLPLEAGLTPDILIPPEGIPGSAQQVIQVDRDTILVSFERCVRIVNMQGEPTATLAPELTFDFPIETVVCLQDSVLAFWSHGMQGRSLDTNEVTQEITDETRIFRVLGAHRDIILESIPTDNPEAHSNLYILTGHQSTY
# UniProt Q13043, sequence (whole entry, looked up): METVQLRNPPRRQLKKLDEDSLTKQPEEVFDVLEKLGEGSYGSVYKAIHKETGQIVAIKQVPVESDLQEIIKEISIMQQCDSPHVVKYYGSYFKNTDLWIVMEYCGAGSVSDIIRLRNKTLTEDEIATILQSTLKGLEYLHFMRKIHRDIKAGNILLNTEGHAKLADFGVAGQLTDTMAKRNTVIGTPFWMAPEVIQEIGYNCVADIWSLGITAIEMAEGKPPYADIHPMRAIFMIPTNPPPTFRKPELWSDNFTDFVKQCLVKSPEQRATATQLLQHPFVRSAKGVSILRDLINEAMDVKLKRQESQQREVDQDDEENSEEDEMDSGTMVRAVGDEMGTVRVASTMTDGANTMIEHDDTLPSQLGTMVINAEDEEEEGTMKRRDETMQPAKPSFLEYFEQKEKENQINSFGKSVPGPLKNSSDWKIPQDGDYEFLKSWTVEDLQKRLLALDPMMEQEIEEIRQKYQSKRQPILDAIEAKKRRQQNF
SMILES,tested on,assay,system,setting,how to read,quantity,value
O=C1NC2(CC2)COc2ncc(F)cc2[C@H]2COCCN2c2ccn3ncc1c3n2,,,"Sprague-Dawley rat, male, serum","oral, 20 mg/kg/day, 4 weeks daily, end of recovery period",,pancreatic amylase activity,1980 ± 233 U/L
O=C1NC(=O)c2c1c1cc(F)c[n+]3c1c1c2c2cc(O)ccc2[n]1[Ru-4]312([N]=C=S)[S+]3CC[S+]1CC[S+]2CC3 (stereo not shown),"Serine/threonine-protein kinase 4 (STK4, Homo sapiens, UniProt Q13043)",enzyme activity,,"100 nM, human enzyme, together with: 10 µM ATP",baseline: untreated,remaining activity,12%
CC(C)(C)C(=O)OCOP(=O)(OCOC(=O)C(C)(C)C)C1CCCN(O)C1=O (stereo not shown),K562,,,,,log GI50,-6.41 log M
COc1ccccc1-c1n[nH]c2nc(N[C@H]3CC[C@H](NS(=O)(=O)CC(C)C)CC3)ncc12,Leishmania CRK3 LINJ.36.0600,bead competition pull-down,Leishmania donovani extract,10 µM,baseline: vehicle,relative captured amount,0.42
CC[C@H](C)[C@H](NC(=O)[C@H](CO)NC(=O)[C@H](Cc1ccc(O)cc1)NC(=O)[C@H](Cc1ccc(O)cc1)NC(=O)[C@H](CC(N)=O)NC(=O)CNC(=O)[C@H](CO)NC(=O)[C@H](Cc1ccc(O)cc1)NC(=O)[C@H](CO)NC(=O)[C@H](CO)NC(=O)[C@H](CC(N)=O)NC(=O)COCCOCCNC(=O)CN1CCN(CC(=O)O)CCN(CC(=O)O)CCN(CC(=O)O)CC1)C(=O)N[C@@H](CC(C)C)C(N)=O [copper-64 labelled],,dynamic PET,"KPC mouse Ptf1a-CreER tdTomato, metastases","intravenous, 4.6 MBq/mouse, 27.5 min, 84 d after tamoxifen",,tissue uptake,13.3 %ID/mL
C=CC(=O)Nc1cc(-c2nn(C3CCC(N4CCN(C(C)=O)CC4)CC3)c3ncnc(N)c23)ccc1Oc1ccccc1 (stereo not shown),"Aurora kinases A, B and C",KiNativ profiling,,2 µM,,inhibition,-1.4%
Cc1cc(O)cc(C)c1C[C@H](N)C(=O)N[C@H](CCCNC(=N)N)C(=O)N[C@@H](Cc1ccccc1)C(=O)N[C@@H](CCCCN)C(=O)N[C@H]1CC[C@H](NC(=O)[C@H](Cc2ccccc2)NC(=O)[C@H](CC2CCCCC2)NC[C@@H]2Cc3ccccc3CN2C(=O)[C@@H](N)Cc2ccc(O)cc2)CC1,opioid receptor,"smooth muscle contraction, agonist",mouse vas deferens,,,IC50,98.3 ± 2.4 nM
CCCCCCCCCCCC(=O)C(C)C(=O)N1CCC[C@H]1C(=O)NC(C)(C)C(=O)NC(C)(C)C(=O)NC(C)(C)C(=O)N[C@](C)(CC)C(=O)NCCC(=O)N[C@@H](C)C(=O)N[C@](C)(CC)C(=O)N[C@@H](C)C(=O)N[C@@H](CC(C)C)C(=O)N[C@](C)(CC)C(=O)NCCC(=O)N[C@@H](C)C(=O)N[C@](C)(CC)C(=O)NCCC(=O)N[C@@H](C)C(=O)NC(C)(C)C(=O)NC(C)(C)C(=O)NC(C)(C)C(=O)N[C@@H](C)C(=O)N[C@@H](CC(=O)O)C(=O)O (stereo partly shown),"β-1,3-glucan","pull-down, LC-MS",,"1 h, pH 7.0, 30 °C, together with: β-glucan 1 mg/mL",higher = more bound,bound compound (MS peak area),1300 a.u. and 1360 a.u.
CSCC[C@H](NC(=O)CNC(=O)[C@H](CCSC)NC(=O)[C@H](CS)NC(=O)[C@@H](N)CS)C(=O)N[C@@H](CS)C(=O)NCC(=O)N[C@@H](CCCCN)C(=O)O,p38 MAPK (mouse),Western blot,RAW264.7,"concentration not given, 6 h pretreatment, together with: LPS for 30 min",,p-p38/p38 ratio,0.63 ± 0.11
CN(C)[C@H]1C[C@@]23CC[C@@]4(O2)C(=CC[C@]2(C)[C@@H](c5ccc6ccncc6c5)CC[C@H]24)C=C3[C@@H](O)[C@@H]1O,"Mitogen-activated protein kinase kinase kinase kinase 2 (MAP4K2, Homo sapiens, UniProt Q12851)","ATP probe labelling, inhibitor, KiNativ profiling",,1 µM,,inhibition,3%
COc1ccccc1-c1n[nH]c2nc(NC3CCN(C(=O)Cc4ccc(F)cc4F)CC3)ncc12,CRK3 LINJ.36.0600,bead competition pull-down,Leishmania donovani extract,10 µM,baseline: vehicle,relative captured amount,0.78
Nc1ncc(-c2cc(-c3cnn(CC(F)(F)F)c3)ncc2F)nc1C(=O)NC1CNCC(F)C1 (stereo not shown),GCN2 kinase domain 2 S808G,KINOMEscan,,1 µM,,remaining binding,90%
Cc1cc(C(=O)Nc2nc3cccc(C)c3n2[C@H]2CCCCN(C(=O)/C=C/CN(C)C)C2)ccn1,Trypanosoma brucei CLK1 wild type,differential scanning fluorimetry,,,,melting temperature,53.8 °C and 53.9 °C
C[C@@H]1NC(=O)[C@H](CCCNC(=N)N)NC(=O)[C@H](Cc2ccc3ccccc3c2)NC(=O)[C@H]2CCCCN2C(=O)[C@@H]([C@H](C)O)NC(=O)[C@H](Cc2ccc(F)cc2)NC(=O)[C@@H](Cc2ccc(F)cc2)NC(=O)c2cc3cc(c2)C(=O)NC[C@H](NC(=O)[C@@H](Cc2ccccc2)NC1=O)C(=O)N[C@@H](Cc1ccccc1)C(=O)N[C@@H](Cc1ccc2ccccc2c1)C(=O)N[C@@H](CCCNC(=N)N)C(=O)N[C@@H](CCCNC(=N)N)C(=O)N[C@@H](CCCNC(=N)N)C(=O)N[C@@H](CCCNC(=N)N)C(=O)N[C@H](C(=O)N[C@@H](CCCCN)C(N)=O)CNC3=O,Pin1 human,"inhibitor, Western blot",HeLa,0.2 µM,baseline: untreated,PML protein level,1.8 fold
CC[C@H](C)[C@@H]1NC(=O)[C@H](Cc2ccc(O)cc2)NC(=O)[C@@H](N)CSSC[C@@H](C(=O)N2CCC[C@H]2C(=O)N2CCC[C@H]2C(=O)NCC(N)=O)NC(=O)[C@H](CC(N)=O)NC(=O)[C@H](CCC(N)=O)NC1=O,titi monkey oxytocin receptor,"membrane hyperpolarisation, FMP blue membrane potential dye",CHO cells,,,IC50,0.3 nM
CC[C@@H]1CN2CCc3c([nH]c4cccc(OC)c34)[C@@H]2C[C@@H]1/C(=C\OC)C(=O)OC,rabbit anti-mitragynine polyclonal IgG,"antigen binding, competitor, competitive indirect ELISA",15% methanol,"60 min antibody-standard, 30 min antibody-antigen incubation",,IC50,0.59 µg/mL and 0.58 µg/mL

# For quick reference, copied from above:
SMILES,tested on,assay,system,setting,how to read,quantity,value
Nc1ncc(-c2cc(-c3cnn(CC(F)(F)F)c3)ncc2F)nc1C(=O)NC1CNCC(F)C1 (stereo not shown),GCN2 kinase domain 2 S808G,KINOMEscan,,1 µM,,remaining binding,90%
Cc1cc(C(=O)Nc2nc3cccc(C)c3n2[C@H]2CCCCN(C(=O)/C=C/CN(C)C)C2)ccn1,Trypanosoma brucei CLK1 wild type,differential scanning fluorimetry,,,,melting temperature,53.8 °C and 53.9 °C
C[C@@H]1NC(=O)[C@H](CCCNC(=N)N)NC(=O)[C@H](Cc2ccc3ccccc3c2)NC(=O)[C@H]2CCCCN2C(=O)[C@@H]([C@H](C)O)NC(=O)[C@H](Cc2ccc(F)cc2)NC(=O)[C@@H](Cc2ccc(F)cc2)NC(=O)c2cc3cc(c2)C(=O)NC[C@H](NC(=O)[C@@H](Cc2ccccc2)NC1=O)C(=O)N[C@@H](Cc1ccccc1)C(=O)N[C@@H](Cc1ccc2ccccc2c1)C(=O)N[C@@H](CCCNC(=N)N)C(=O)N[C@@H](CCCNC(=N)N)C(=O)N[C@@H](CCCNC(=N)N)C(=O)N[C@@H](CCCNC(=N)N)C(=O)N[C@H](C(=O)N[C@@H](CCCCN)C(N)=O)CNC3=O,Pin1 human,"inhibitor, Western blot",HeLa,0.2 µM,baseline: untreated,PML protein level,1.8 fold
